Published values of several laboratories.
Each numbered part is a random draw from the data of one study; scales do not carry over between parts.

Study 1
Target: Interferon regulatory factor 3, full length, phosphomimetic (IRF3, Homo sapiens, UniProt Q14653, residues 1-427, S386D/S396D/S398D/S402D/T404D/S405D)
Technique: protein-binding microarray
Molecule type: double-stranded DNA, one strand shown
Medium: in vitro
Tested at: 2540 nM top
Notes: 60-bp whole probe
With: salmon DNA 0.4 mg/ml
Reference: random background probes
Reading: higher = stronger binding
All sequences stand within: GCCTAGCAC … GTCTTGATTCGCTTGACGCTGCTG
Residues (chain): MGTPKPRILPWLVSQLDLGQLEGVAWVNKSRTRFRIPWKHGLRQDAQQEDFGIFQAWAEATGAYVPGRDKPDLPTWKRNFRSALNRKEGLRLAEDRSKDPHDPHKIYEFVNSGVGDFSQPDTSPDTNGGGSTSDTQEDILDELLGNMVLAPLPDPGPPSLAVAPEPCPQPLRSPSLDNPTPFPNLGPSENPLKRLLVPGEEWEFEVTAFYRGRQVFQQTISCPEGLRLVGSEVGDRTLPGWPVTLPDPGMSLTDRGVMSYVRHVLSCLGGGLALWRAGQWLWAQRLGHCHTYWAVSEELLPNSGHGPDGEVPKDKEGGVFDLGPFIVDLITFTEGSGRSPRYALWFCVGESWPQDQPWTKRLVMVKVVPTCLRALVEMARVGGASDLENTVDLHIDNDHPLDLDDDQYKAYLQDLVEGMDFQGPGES
Strand	fitted relative affinity
TTAGGTATCCTACTGCTTTTGTGCTAG	2.21 z-score
GACGATTCCAGCTTCGAGACGTGCTAG	0.591 z-score
TTAGGACTGTGTTTCGGTTAGTGCTAG	2.9 z-score
TTAGGACTGGACAGTGGGTTAGTGCTA	-0.715 z-score
TCAATTCCTGATCTCTGACTGTGCTAG	1.17 z-score
GACGGTTTCGGTTTCCGGACGTGCTAG	10.5 z-score
CAGAATCCCCTTCTACTCTCGTGCTAG	2.47 z-score
TCATGACACCGATTTCATACTGTGCTA	0.499 z-score
ATTGGTTGAACATGAACTTCGTGCTAG	-0.432 z-score
GACGGTTTCTGTCTCGGGACGTGCTAG	5.14 z-score
TTAGGTCTCGGTATCGGGTAGTGCTAG	1.39 z-score
GACGGTATCGGGTATCCGGACGTGCTA	2.21 z-score
GACGGACTGGGGTAGCGGGACGTGCTA	-0.921 z-score
TTAGGACTGGACTTTAGGTTAGTGCTA	-0.684 z-score
CACGAACTGGGGACTGGAGACGTGCTA	-0.547 z-score
TTAGGTTTCCTTTTCGTTTAGTGCTAG	11.8 z-score
TTAGATATCAGTCTCGATGAGTGCTAG	1.13 z-score
ATGAAAATCTCAATGGGTTAGTGCTAG	-0.479 z-score
TCATTTCTTTAACTCATACTGTGCTAG	2.3 z-score

Study 2
Target: RNA binding protein fox-1 homolog 2, RRM domain, GST-SBP tag (RBFOX2, Homo sapiens, UniProt O43251-10, residues 100-194)
Technique: RNA Bind-n-Seq
Molecule type: RNA
Medium: in vitro
Tested at: 365 nM
Notes: natural RNA segment, single round, ends assumed
Reference: no-protein control
Reading: higher = stronger binding
Target sequence (chain): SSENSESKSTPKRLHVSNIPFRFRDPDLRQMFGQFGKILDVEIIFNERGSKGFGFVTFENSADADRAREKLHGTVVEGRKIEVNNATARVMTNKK
Strand	RBNS enrichment (R)
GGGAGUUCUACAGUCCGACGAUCUGCUCCAUCAUGAAGACUUGCUUCCCCACCAAAGAUGUCCUGGGAUUCUGCUGGAUCUCAAAGAUGUGCCAAGCCAAGGAAAAAGAUACAAGAGCAGAAUAGUACUUAAAUGGAAUUCUCGGGUGCCAA	0.259
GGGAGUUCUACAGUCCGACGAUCUUGAACCGAAGAAUUAUGUCUGCCCUACAAAUUGAUUUGUGUAAAAUAAAGUAUAACUAAAUCUCCUAUCAGAUGUCUAAUUUUUACAUGCGAAUGAUUUUCUCCAAGAAUGGAAUUCUCGGGUGCCAA	0.783
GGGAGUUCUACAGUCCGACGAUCACAUUUCUUCUCCCAACUAAAAAUGUAAGAAGAAAAAAAAAUUUUUUUCUUUUUCUCUUUUUUUUUUUUUUUGUGGUACAGAAGUUUUUUGUUUGGUUAUUUGUUUGUUUUGGAAUUCUCGGGUGCCAA	1.23
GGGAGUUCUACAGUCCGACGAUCGUGUCAUGCUGCUGCUGUGAUCUUCAGCCUGCCUUGCCUGGAAACAUGGCAAAGACAAUGCUGACACCACUCCACUGUGAGAGCAUAGUCUGGGGACACUGACUCAGCGAUGGAAUUCUCGGGUGCCAA	0.215
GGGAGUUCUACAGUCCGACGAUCGUCGGGUCCUCAGAUCGCCUCUGACUUGUUACCACAACAAAUCAUUUUGAUUUCAGUGCCUGUUGGGGACUUGAUUUCUUCUCAGUUUUGUUUGUUUGUUUGUUUCCUUAUGGAAUUCUCGGGUGCCAA	0.375
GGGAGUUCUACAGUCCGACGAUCCUCCUAAUCUAUGUCAUAGAAUUUUGCAUGCUGUAUGAUUGGCUUUGUCUUCUAUCUCCCACCAAAUACCACUUCCUGAGAUUCAUCUCUGAGUUUUGCAAGCGCUCAGGUGGAAUUCUCGGGUGCCAA	45.1
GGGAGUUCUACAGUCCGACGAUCUGGUUAUCUUCCAUUGUGUUUUUCUUUAUGGACAGGAGCUAAUGGAAGUGACAGUCAUGUUCAAAGGAAGCAUUUCUAGAAAAAAGGAGAUAAUGUUUUUAAAUUUCAUUUGGAAUUCUCGGGUGCCAA	0.628
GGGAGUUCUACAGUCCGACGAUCACACCAGCUACCAAUUUUAGAAUAUUAUUUCUUGGUUUCUUUAUGAAAAAUGGGUGCUAGUGGUAAUUGCUUUGUGGCUUAGUAAACUACUCUGUGGAUGAUUUCCAAACUGGAAUUCUCGGGUGCCAA	0.712

Study 3
Target: Histone acetyltransferase KAT6A, both winged helices, GST fusion (KAT6A, Homo sapiens, UniProt Q92794, residues 1-181)
Technique: protein binding microarray
Molecule type: double-stranded DNA, one strand shown
Medium: in vitro
Tested at: not given
Notes: 8-mer, flanks averaged, mean of 2 arrays, mostly near background
Reference: not given
Reading: higher = stronger binding
Target sequence (chain): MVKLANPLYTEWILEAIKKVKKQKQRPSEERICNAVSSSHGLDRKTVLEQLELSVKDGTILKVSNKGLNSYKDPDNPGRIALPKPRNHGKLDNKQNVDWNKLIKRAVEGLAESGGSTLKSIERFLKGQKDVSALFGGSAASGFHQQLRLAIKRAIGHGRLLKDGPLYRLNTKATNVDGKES
Strand	E-score
CACTGTGC	0.082
AGGTTAGG	-0.296
GCAGGCTA	-0.0962
AGATTTTG	-0.128
ACGCGCGT	0.428
TAGTAGGA	-0.153
CCCATCTA	-0.133
ACCAGGCC	0.0124
GACTCGTA	-0.0192
CGACTATA	-0.0777
ACCAAGTG	-0.185
AAAGCGGC	0.295
AGGGGTCA	-0.291
GTTAATAA	0.00899
CCGCTCAA	0.146
ACGTCGGG	0.205
CAAGCTCC	-0.094
AAAATACG	0.0068
CTGGTTAA	-0.0643
GTCTCCAC	-0.106
AACGAGAC	0.0593
ACGACCTG	-0.0601
GGCATCAA	-0.0356
ACTAGAAG	-0.127
GAAGAATA	-0.141

Study 4
Target: Prothrombin, mature alpha-thrombin (F2, Homo sapiens, UniProt P00734)
Technique: aptamer microarray, sandwich
Molecule type: DNA with 2'F-ANA
Medium: in vitro
Tested at: 200 nM
Notes: whole 15-mer aptamer, many near background
With: Cy3 exosite-II aptamer, 400 nM
Reading: higher = stronger binding
Strand: GGTTGGTGTGGTTGG
Modification	mean fluorescence intensity
2'F-ANA at 5 6 7 8 11 12 13 15	94 a.u.
2'F-ANA at 4 5 7 12	173 a.u.
2'F-ANA at 4 6 7 9	262 a.u.
2'F-ANA at 1 2 3 5 6 7 9 11	56.3 a.u.
2'F-ANA at 1 4 5 13 15	50.3 a.u.
2'F-ANA at 2 3 6 9 10 11 12 13 14 15	213 a.u.
2'F-ANA at 2 5 6 7 10 13 15	45 a.u.
2'F-ANA at 4 6 8 11 12 13 14 15	99.2 a.u.
2'F-ANA at 2 3 4 6 7 8 9	642 a.u.
2'F-ANA at 1 2 3 7 11	219 a.u.
2'F-ANA at 2 3 4 5 6 9 11 12 13 14 15	50.4 a.u.
2'F-ANA at 3 4 7 9 13 14	301 a.u.
2'F-ANA at 1 6 7 8 14 15	63.2 a.u.
2'F-ANA at 1 2 4 5 6 8 9 10 11 12 13 14 15	51.7 a.u.
2'F-ANA at 4 7 9 10 12 14 15	72.9 a.u.
2'F-ANA at 1 5 7 11 12 13	115 a.u.
2'F-ANA at 2 8 11 14	153 a.u.
2'F-ANA at 2 4 5 6 7 9 10 14 15	47.3 a.u.
2'F-ANA at 2 3 5 8 12 13 15	195 a.u.
2'F-ANA at 1 4 5 6 8 12 14 15	47.1 a.u.
2'F-ANA at 1 2 5 6 7 9 14	51.6 a.u.
2'F-ANA at 1 5 7 9 12 13 14 15	46.3 a.u.
2'F-ANA at 6 8 10 11 13 14 15	140 a.u.
2'F-ANA at 1 3 5 6 8 10 14	48.4 a.u.
2'F-ANA at 2 3 4 8 13 14	305 a.u.

Repeated from above (study 2):
Strand	RBNS enrichment (R)
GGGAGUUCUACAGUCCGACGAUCUGCUCCAUCAUGAAGACUUGCUUCCCCACCAAAGAUGUCCUGGGAUUCUGCUGGAUCUCAAAGAUGUGCCAAGCCAAGGAAAAAGAUACAAGAGCAGAAUAGUACUUAAAUGGAAUUCUCGGGUGCCAA	0.259
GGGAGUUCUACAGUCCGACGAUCUUGAACCGAAGAAUUAUGUCUGCCCUACAAAUUGAUUUGUGUAAAAUAAAGUAUAACUAAAUCUCCUAUCAGAUGUCUAAUUUUUACAUGCGAAUGAUUUUCUCCAAGAAUGGAAUUCUCGGGUGCCAA	0.783
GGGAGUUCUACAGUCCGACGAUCACAUUUCUUCUCCCAACUAAAAAUGUAAGAAGAAAAAAAAAUUUUUUUCUUUUUCUCUUUUUUUUUUUUUUUGUGGUACAGAAGUUUUUUGUUUGGUUAUUUGUUUGUUUUGGAAUUCUCGGGUGCCAA	1.23
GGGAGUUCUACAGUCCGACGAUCGUGUCAUGCUGCUGCUGUGAUCUUCAGCCUGCCUUGCCUGGAAACAUGGCAAAGACAAUGCUGACACCACUCCACUGUGAGAGCAUAGUCUGGGGACACUGACUCAGCGAUGGAAUUCUCGGGUGCCAA	0.215
